Experimental data gathered from unrelated publications.
Lines come from different studies, so protocols differ. Several values in a cell are separate wells, animals, samples, runs or records. Numbers after ± are the reported error.
UniProt Q16539, sequence (whole entry, looked up): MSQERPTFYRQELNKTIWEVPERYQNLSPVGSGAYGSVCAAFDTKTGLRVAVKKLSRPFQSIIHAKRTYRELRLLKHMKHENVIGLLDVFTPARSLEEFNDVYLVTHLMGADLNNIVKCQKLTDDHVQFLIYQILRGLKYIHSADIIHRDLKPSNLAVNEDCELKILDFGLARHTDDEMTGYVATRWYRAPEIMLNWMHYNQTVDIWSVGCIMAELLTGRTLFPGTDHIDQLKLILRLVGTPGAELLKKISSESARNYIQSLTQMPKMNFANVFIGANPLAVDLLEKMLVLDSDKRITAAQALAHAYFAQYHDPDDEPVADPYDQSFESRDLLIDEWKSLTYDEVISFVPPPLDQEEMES

C=CC12CN(C)C3C4COC(CC41)C1(C(=O)N(OC)c4ccccc41)C32 (stereo not drawn)
viability (HT-22; CCK-8; up to 100 µM, 24 h): no effect

CN(C)[C@H]1C[C@@]23CC[C@@]4(O2)C(=CC[C@]2(C)[C@@H](c5ccc6ccncc6c5)CC[C@H]24)C=C3[C@@H](O)[C@@H]1O
inhibition (MAPK14 (Homo sapiens, UniProt Q16539); probe labelling, inhibitor, KiNativ ATP probe MS; native lysate; 1 µM): 7%

O=C(C[Se]C(=O)c1ccco1)Nc1cccc(C(F)(F)F)c1
GI50 (NCI60 leukaemia subpanel; NCI60 five-dose screen): 5.63 µM

COc1ccccc1-c1n[nH]c2nc(NC3CCN(C(=O)Cc4ccc(F)cc4F)CC3)ncc12
relative abundance (bead binding, competition bead pull-down, measured: LINJ.26.1960; Leishmania donovani extract; 10 µM; relative to: vehicle): 1.13

CC(=O)NCSC[C@H](NC(=O)[C@@H]1CCCN1C(=O)[C@H](C)NC(=O)[C@@H](NC(=O)CNC(=O)[C@@H](NC(=O)[C@H](Cc1c[nH]c2ccccc12)NC(=O)[C@H](C)NC(=O)CNC(=O)[C@H](CO)NC(=O)[C@H](C)NC(=O)[C@@H]1CCCN1C(=O)[C@H](Cc1c[nH]c2ccccc12)NC(=O)[C@H](C)NC(=O)[C@H](C)NC(=O)[C@@H](N)Cc1ccc(O)cc1)[C@@H](C)O)[C@@H](C)O)C(=O)N[C@@H](CO)C(=O)N[C@@H](C)C(=O)NCC(=O)N[C@H](C(=O)NCCOCCOCCOCCOCCOCCOCCOCCOCCOCCOCCOCCOCCC(=O)N[C@@H](CS)C(N)=O)[C@@H](C)O
selectivity ratio (MCF7 breast cancer; cell binding, phage binding, measured: output/input phage; 10 min, 37 °C; relative to: control phage): 2.6 ± 2.3

O=C(C[Se]C(=O)c1cccs1)Nc1cccc(C(F)(F)F)c1
mean TGI (NCI60 melanoma subpanel; total growth inhibition, inhibitor; five-dose): 3.41 µM

COc1ccccc1-c1n[nH]c2nc(N[C@H]3CC[C@H](NS(=O)(=O)CC(C)C)CC3)ncc12
relative abundance (bead binding, competition bead pull-down, measured: LINJ.21.0920; Leishmania donovani extract; 10 µM; relative to: vehicle): 0.68

CC1CCC2C(C)C(OC(=O)CCC(=O)N3CCC(Nc4ccc(S(=O)(=O)NC(=O)c5ccc(N6CCN(CC7=C(c8ccc(Cl)cc8)CC(C)(C)CC7)CC6)cc5Oc5cnc6[nH]ccc6c5)cc4[N+](=O)[O-])CC3)OC3OC4(C)CCC1C32OO4 (stereo not drawn)
late apoptotic cells (K562; annexin V/PI flow cytometry, measured: annexin V+/PI+; 3.2 µM, 24 h): 2.4%

NC(=S)N/N=C/c1ccc(OCc2ccccc2)cc1
glutathione peroxidase activity (OD450) (IMR-32; measured: GPX3; 500 µg/mL, 24 h; higher = more activity): 0.181 a.u.

O=C1NC2(CC2)COc2ncc(F)cc2[C@H]2COCCN2c2ccn3ncc1c3n2
serum hepatic lipase activity (Sprague-Dawley rat, male, serum; oral, 2.5 mg/kg/day, end of recovery, 4-week subacute toxicity): 3.5 ± 0.2 U/L

CC[C@H](C)[C@H](NC(=O)[C@H](C)NC(=O)CNC(=O)[C@H](Cc1ccccc1)NC(=O)[C@H](CC(N)=O)NC(=O)[C@H](CC(N)=O)NC(=O)[C@H](CO[C@@H]1O[C@H](CO)[C@@H](O)[C@H](O)[C@H]1NC(C)=O)NC(=O)[C@H](CO)NC(=O)[C@H](Cc1c[nH]cn1)NC(=O)[C@@H](NC(=O)[C@H](CC(C)C)NC(=O)[C@H](Cc1ccccc1)NC(=O)[C@H](CC(N)=O)NC(=O)[C@H](C)NC(=O)[C@@H](N)CC(C)C)C(C)C)C(=O)N[C@@H](CC(C)C)C(N)=O
viability (INS-1; MTT; 10 equivalents to hIAPP, 24 h, with: hIAPP 1 µM): 77.8% and 80.5%

COc1ccccc1-c1ccncc1C(=O)Nc1nnc(OCc2ccc(Cl)cc2)s1
colony survival (RPE-1 BRCA1 WT parental; 0.125 µM, run 2; relative to: untreated): 89.5%

Cc1cc(=O)oc2cc(OCCCCCC[Se]C#N)ccc12
GI50 (T47D; cell growth or viability, SRB): 3.1 µM

CC(C)(C)C(=O)OCOP(=O)(OCOC(=O)C(C)(C)C)C1CCCN(O)C1=O (stereo not drawn)
CC50 (OVCAR-5): > 100 µM

Cc1cc(C(=O)Nc2nc3cccc(C)c3n2[C@H]2CCCCN(C(=O)/C=C/CN(C)C)C2)ccn1
cell growth (Trypanosoma brucei brucei; CLK1 C215S mutant expressing; 10 x EC50, 48 h): 10900% and 9380% and 6810%
